Measurements pooled from the literature.
Lines come from different studies, so protocols differ. Numbers after ± are the reported error.
Urea transporter 1: Urea transporter 1 (Homo sapiens, UniProt Q13336)
Sequence of UniProt Q13336 (whole entry, looked up): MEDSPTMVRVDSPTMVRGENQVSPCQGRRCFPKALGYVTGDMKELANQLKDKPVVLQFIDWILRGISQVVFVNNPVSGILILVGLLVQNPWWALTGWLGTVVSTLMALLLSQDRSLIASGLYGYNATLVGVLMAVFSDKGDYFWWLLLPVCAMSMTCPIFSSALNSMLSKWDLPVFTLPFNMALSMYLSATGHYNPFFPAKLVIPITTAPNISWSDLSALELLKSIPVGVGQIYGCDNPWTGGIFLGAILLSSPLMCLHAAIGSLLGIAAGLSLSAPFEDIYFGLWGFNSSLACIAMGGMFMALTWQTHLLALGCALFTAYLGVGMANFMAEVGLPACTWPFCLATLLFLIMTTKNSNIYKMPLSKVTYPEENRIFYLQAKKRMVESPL
IDE: Insulin-degrading enzyme (IDE, Homo sapiens, UniProt P14735)
CYP2E1: Cytochrome P450 2E1 (CYP2E1, Homo sapiens, UniProt P05181)
Sequence of UniProt P05181 (whole entry, looked up): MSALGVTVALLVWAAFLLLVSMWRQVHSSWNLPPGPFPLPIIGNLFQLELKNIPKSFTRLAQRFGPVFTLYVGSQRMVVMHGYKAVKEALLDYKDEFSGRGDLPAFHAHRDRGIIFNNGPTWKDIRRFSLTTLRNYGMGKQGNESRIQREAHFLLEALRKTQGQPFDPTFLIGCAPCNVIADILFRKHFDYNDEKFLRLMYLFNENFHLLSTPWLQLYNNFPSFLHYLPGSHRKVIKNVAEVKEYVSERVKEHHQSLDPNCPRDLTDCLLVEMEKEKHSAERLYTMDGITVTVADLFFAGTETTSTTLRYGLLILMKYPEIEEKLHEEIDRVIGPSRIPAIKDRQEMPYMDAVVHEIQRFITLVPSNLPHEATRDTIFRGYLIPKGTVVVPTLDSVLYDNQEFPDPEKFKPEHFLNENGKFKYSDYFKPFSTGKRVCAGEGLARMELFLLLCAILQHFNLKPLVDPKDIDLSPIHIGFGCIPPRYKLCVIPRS
PLEKHA6 PH domain: Pleckstrin homology domain-containing family A member 6, PH domain (PLEKHA6, Homo sapiens, UniProt Q9Y2H5)
Sequence of UniProt Q9Y2H5 (whole entry, looked up): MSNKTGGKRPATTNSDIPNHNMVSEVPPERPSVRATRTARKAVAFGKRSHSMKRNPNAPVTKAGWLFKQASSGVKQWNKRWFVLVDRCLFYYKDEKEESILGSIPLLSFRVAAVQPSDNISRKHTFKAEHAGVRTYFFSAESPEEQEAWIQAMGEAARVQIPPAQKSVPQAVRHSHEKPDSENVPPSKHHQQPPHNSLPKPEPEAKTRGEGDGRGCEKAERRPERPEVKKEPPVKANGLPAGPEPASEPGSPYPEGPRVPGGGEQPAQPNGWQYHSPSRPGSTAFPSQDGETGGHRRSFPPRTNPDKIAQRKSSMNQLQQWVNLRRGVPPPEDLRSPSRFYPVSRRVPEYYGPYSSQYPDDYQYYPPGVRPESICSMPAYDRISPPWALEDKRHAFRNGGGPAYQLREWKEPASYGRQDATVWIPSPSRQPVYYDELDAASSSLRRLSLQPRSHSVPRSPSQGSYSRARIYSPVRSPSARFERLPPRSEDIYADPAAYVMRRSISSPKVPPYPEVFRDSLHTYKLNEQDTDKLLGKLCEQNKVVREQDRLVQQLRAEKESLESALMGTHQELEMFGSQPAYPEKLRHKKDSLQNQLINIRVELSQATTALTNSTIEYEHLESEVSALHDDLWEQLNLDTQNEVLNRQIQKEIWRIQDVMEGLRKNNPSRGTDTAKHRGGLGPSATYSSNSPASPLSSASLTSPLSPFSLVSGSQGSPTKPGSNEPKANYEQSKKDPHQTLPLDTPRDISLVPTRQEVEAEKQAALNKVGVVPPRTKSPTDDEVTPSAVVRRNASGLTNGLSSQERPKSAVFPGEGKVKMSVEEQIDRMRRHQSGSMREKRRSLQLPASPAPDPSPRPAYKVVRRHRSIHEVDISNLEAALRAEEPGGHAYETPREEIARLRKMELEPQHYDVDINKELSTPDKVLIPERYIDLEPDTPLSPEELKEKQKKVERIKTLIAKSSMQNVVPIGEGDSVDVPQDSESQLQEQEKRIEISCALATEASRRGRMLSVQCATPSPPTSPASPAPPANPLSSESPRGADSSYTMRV
ELAVL1: ELAV-like protein 1 (ELAVL1, Homo sapiens, UniProt Q15717)
Sequence of UniProt Q15717 (whole entry, looked up): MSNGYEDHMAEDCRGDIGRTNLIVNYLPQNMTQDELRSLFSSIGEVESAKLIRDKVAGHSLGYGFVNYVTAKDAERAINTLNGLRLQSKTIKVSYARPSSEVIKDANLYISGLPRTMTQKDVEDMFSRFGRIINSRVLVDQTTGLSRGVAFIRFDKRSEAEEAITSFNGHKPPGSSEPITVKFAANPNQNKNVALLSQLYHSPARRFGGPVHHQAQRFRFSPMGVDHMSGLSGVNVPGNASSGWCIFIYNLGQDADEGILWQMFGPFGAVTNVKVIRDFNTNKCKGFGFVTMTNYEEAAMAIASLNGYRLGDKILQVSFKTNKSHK
Sequence of UniProt P52790 (whole entry, unmodified, looked up): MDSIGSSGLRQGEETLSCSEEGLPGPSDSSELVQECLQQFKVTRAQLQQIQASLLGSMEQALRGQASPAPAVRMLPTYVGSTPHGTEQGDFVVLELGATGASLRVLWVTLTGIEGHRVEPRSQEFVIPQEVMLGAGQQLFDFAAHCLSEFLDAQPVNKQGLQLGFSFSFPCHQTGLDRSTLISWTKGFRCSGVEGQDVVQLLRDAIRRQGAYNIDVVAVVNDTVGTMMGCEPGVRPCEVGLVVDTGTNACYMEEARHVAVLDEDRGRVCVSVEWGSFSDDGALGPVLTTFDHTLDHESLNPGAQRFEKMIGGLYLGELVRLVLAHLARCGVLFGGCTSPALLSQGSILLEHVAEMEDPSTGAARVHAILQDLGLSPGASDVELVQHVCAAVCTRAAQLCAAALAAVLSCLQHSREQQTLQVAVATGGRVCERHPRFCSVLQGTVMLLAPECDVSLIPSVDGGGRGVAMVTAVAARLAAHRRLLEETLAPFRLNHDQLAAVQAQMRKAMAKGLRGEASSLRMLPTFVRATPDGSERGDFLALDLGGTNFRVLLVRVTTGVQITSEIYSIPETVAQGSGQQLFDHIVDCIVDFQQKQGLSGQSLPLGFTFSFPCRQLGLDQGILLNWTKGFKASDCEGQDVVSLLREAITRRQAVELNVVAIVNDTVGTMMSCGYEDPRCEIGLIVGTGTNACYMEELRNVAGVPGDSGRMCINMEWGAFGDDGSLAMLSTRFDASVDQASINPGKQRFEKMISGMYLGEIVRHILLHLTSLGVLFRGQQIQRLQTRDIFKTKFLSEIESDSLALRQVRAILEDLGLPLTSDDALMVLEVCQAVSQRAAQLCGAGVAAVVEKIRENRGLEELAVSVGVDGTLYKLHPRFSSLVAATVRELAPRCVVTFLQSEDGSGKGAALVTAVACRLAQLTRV
Sequence of UniProt Q96NT5 (whole entry, unmodified, looked up): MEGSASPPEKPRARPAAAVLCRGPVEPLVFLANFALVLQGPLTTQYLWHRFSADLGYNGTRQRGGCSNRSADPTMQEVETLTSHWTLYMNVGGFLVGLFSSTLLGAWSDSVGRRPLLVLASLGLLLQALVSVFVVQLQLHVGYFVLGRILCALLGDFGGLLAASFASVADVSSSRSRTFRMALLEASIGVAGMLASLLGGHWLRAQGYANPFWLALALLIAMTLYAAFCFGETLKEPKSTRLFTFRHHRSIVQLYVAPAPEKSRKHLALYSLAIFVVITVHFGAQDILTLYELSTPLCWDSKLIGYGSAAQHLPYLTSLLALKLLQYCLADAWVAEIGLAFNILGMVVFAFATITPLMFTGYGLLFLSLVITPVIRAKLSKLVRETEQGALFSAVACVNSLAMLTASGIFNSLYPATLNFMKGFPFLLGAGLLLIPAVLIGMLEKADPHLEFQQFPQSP
Sequence of UniProt P28074 (whole entry, looked up): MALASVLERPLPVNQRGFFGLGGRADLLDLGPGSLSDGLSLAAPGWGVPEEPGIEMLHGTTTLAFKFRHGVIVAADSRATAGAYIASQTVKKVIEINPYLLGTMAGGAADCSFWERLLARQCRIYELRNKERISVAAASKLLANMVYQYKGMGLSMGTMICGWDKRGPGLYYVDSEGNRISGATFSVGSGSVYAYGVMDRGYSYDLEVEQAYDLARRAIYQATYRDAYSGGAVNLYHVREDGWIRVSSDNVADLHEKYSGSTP
Sequence of UniProt Q96C36 (whole entry, unmodified, looked up): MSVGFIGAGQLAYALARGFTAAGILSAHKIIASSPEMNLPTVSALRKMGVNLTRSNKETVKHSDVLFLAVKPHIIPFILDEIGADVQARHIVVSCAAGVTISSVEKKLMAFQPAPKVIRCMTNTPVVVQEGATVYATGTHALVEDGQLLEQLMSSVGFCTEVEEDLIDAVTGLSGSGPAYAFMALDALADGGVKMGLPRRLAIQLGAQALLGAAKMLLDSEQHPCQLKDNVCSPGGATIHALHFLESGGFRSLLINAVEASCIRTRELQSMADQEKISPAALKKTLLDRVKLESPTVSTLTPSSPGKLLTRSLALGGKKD
Sequence of UniProt Q9Y6L6 (whole entry, looked up): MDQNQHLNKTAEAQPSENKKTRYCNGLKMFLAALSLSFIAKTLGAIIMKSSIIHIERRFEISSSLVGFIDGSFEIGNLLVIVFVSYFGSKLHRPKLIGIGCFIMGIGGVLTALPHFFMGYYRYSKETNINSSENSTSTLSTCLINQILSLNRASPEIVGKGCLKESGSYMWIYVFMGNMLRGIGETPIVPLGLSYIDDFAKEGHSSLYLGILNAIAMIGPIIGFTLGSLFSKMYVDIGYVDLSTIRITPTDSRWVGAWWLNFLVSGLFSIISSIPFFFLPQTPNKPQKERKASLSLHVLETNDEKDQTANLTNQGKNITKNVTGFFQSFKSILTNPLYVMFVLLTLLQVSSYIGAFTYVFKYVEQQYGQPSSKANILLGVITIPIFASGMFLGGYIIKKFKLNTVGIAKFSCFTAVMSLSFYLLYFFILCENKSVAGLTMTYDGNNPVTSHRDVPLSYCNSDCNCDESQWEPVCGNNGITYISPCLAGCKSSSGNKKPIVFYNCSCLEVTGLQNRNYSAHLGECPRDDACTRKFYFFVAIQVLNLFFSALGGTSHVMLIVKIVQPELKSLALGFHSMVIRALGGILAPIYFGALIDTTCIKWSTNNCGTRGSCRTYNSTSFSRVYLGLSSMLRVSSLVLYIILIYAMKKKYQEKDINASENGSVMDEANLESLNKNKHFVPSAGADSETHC

The Ki of `CNC(=O)NC` is reported as 800 µM (Urea transporter 1; urea transport inhibition; with: thiourea).
`CCS(=O)(=O)N1CCCCN2[C@H](CO)[C@@H](c3ccc(-c4ccccc4C)cc3)[C@@H]2C1` has an EC50 of 0.41 µM (IDE; enzyme activity, inhibitor, fluorogenic kinetic; with: Mca-RPPGFSAFK(Dnp)-OH substrate).
`NS(=O)(=O)c1nnc(NC(=O)CN2CCCC(F)(F)C2)s1` has a Ki of 0.0357 µM (Enterococcus faecium γ-carbonic anhydrase; CO2 hydration, inhibitor, stopped-flow kinetics).
`CCc1oc2ccccc2c1C(=O)c1ccc(O)cc1` has a Ki of 0.57 µM (CYP2E1; p-nitrophenol hydroxylation, inhibitor; baculosomes; 10 min, with additive 1 µM).
The Ki of `CC1CC(C)CN(c2ccc(C=NNc3nc(-c4ccc(F)cc4)cs3)cc2)C1` (stereo not drawn) is reported as 3.11 ± 0.18 µM (alpha-glucosidase; enzyme activity, inhibitor, Lineweaver-Burk plot; with: p-nitrophenyl-alpha-D-glucopyranoside).
`CCOc1cccc(C(=O)CC(SCc2cccc(Br)c2)C(=O)O)c1` (stereo not drawn) gave a Ki of 32.5 ± 7.3 µM (PLEKHA6 PH domain; PLEKHA6 PI(4,5)P2 binding, fluorescence polarization; with: BODIPY-PI(4,5)P2 tracer).
`NC(=S)c1cccnc1` gave a Ki of 100 µM (Urea transporter 1; urea transport inhibition; with: thiourea).
With `CCOC(=O)/C=C/c1cc2cc(NC(=O)c3ccc(C(C)(C)C)cc3)ccc2[nH]1` the Ki was greater than 20 µM (ELAVL1; Msi1 binding, inhibitor, fluorescence polarization).
With `COc1ccccc1NC(=O)N1CCCCN2[C@H](CO)[C@@H](c3ccc(-c4cccc(C)c4)cc3)[C@@H]2C1` the EC50 was 7.6 µM (IDE; enzyme activity, inhibitor, fluorogenic kinetic; with: Mca-RPPGFSAFK(Dnp)-OH substrate).
`CC1CC(C)CN(c2ccc(C=NNc3nc(-c4ccc(-c5ccccc5)cc4)cs3)cc2)C1` (stereo not drawn) gave a Ki of 9.33 ± 0.85 µM (alpha-glucosidase; enzyme activity, inhibitor, Lineweaver-Burk plot; with: p-nitrophenyl-alpha-D-glucopyranoside).
With `CCc1cc(/C(C)=N/OCc2ccc(C3CCCCC3)c(C(F)(F)F)c2)ccc1CN1CC(C(=O)O)C1` the Ki was 0.299 µM (Solute carrier organic anion transporter family member 1B1 (SLCO1B1, Homo sapiens, UniProt Q9Y6L6); inhibitor; HEK293 transfected with SLCO1B1; 3 min, with: estradiol-17β-glucuronide 1 µM).
The Ki of `CCOC(=O)c1cc2cc(NC(=O)c3ccc(N(C)C)cc3)ccc2[nH]1` is reported as 9.48 µM (ELAVL1; Msi1 binding, inhibitor, fluorescence polarization).
The Ki of `CC(=O)C(=O)N(CC(C)C)NC(=O)[C@H](Cc1ccccc1)NC(=O)c1cnccn1` is reported as 474 ± 343 µM (Proteasome component C5/PSMB5 (Homo sapiens, UniProt P20618+P28074); enzyme activity, inhibitor, kinetic; with: Suc-LLVY-AMC).
`CC(C)(C)CCC(=O)Nc1nnc(S(N)(=O)=O)s1` gave a Ki of 0.376 µM (Enterococcus faecium γ-carbonic anhydrase; CO2 hydration, inhibitor, stopped-flow kinetics).
The Ki of `OC[C@H]1OC(O)[C@H](O)[C@@H](O)[C@@H]1O` (stereo partly drawn) is reported as 3100 ± 400 µM (Hexokinase-3 (HK3, Homo sapiens, UniProt P52790, E254A); substrate inhibition; mutant E254A, partial substrate inhibition model, with: ATP 20 mM).
With `Nc1nc2ncc(CNc3ccc(C(=O)N[C@@H](CCC(=O)O)C(=O)O)cc3)nc2c(=O)[nH]1` the Ki was 0.12 ± 0.03 µM (Proton-coupled folate transporter (Homo sapiens, UniProt Q96NT5, H247A); [3H]methotrexate uptake, inhibitor, Dixon plot; transfected cells wt-H247A; pH 5.5, with: [3H]methotrexate 0.5 µM).
For `C#CCOc1cccc(C(=O)CC(SCc2cccc(Br)c2)C(=O)O)c1` (stereo not drawn), the Ki was 36.4 ± 4.5 µM (PLEKHA6 PH domain; PLEKHA6 PI(4,5)P2 binding, fluorescence polarization; with: BODIPY-PI(4,5)P2 tracer).
For `CC1CC(C)CN(c2ccc(C=NNc3nc(-c4ccccc4)cs3)cc2)C1` (stereo not drawn), the Ki was 1.76 ± 0.01 µM (alpha-glucosidase; enzyme activity, inhibitor, Lineweaver-Burk plot; with: p-nitrophenyl-alpha-D-glucopyranoside).
The Ki of `CCc1oc2ccccc2c1C(=O)c1cc(I)c(O)c(I)c1` is reported as 0.0031 µM (CYP2E1; p-nitrophenol hydroxylation, nonlinear fit; baculosomes; 10 min).
For `COc1ccc(-c2csc(NN=Cc3ccc(N4CC(C)CC(C)C4)cc3)n2)cc1` (stereo not drawn), the Ki was 10.6 ± 0.89 µM (alpha-glucosidase; enzyme activity, inhibitor, Lineweaver-Burk plot; with: p-nitrophenyl-alpha-D-glucopyranoside).
For `CCOc1ccc(C(=O)CC(SCc2ccc(Br)cc2)C(=O)O)cc1` (stereo not drawn), the Ki was 147 ± 15 µM (PLEKHA6 PH domain; PLEKHA6 PI(4,5)P2 binding, fluorescence polarization; with: BODIPY-PI(4,5)P2 tracer).
`CCc1oc2ccccc2c1C(=O)c1cc(Br)c(O)c(Br)c1` has a Ki of 15.8 µM (CYP2E1; p-nitrophenol hydroxylation, inhibitor; baculosomes; 10 min, with additive 100 µM).
For `CC(=O)NC(N)=S`, the Ki was 20000 µM (Urea transporter 1; urea transport inhibition; with: thiourea).
For `Cc1cccc(C(=O)Nc2nnc(S(N)(=O)=O)s2)c1`, the Ki was 0.124 µM (Enterococcus faecium γ-carbonic anhydrase; CO2 hydration, inhibitor, stopped-flow kinetics).
`COC(=O)c1cc2cc(NC(=O)c3ccc(C(C)(C)C)cc3)ccc2s1` gave a Ki of greater than 20 µM (ELAVL1; Msi1 binding, inhibitor, fluorescence polarization).
The Ki of `C=CCNC(N)=S` is reported as 30000 µM (Urea transporter 1; urea transport inhibition; with: thiourea).
`CCOC(=O)c1cc(-c2ccc(OCC)cc2)oc1-c1ccc(Cl)cc1` has a Ki of greater than 100 µM (PLEKHA6 PH domain; PLEKHA6 PI(4,5)P2 binding, fluorescence polarization; with: BODIPY-PI(4,5)P2 tracer).
With `N#Cc1ccc([C@H]2CCc3cncn32)c(F)c1` the Ki was 0.482 ± 0.272 µM (CYP2E1; inhibitor, refers to: chlorzoxazone 6-hydroxylation; pooled human liver microsomes; pH 7.4, with: chlorzoxazone).
For `CC(N)=O`, the Ki was 100000 µM (Urea transporter 1; urea transport inhibition; with: thiourea).
`CC1CC(C)CN(c2ccc(C=NNc3nc(-c4ccc(Cl)cc4)cs3)cc2)C1` (stereo not drawn) has a Ki of 4.61 ± 0.24 µM (alpha-glucosidase; enzyme activity, inhibitor, Lineweaver-Burk plot; with: p-nitrophenyl-alpha-D-glucopyranoside).
`CNC(=S)NC` gave a Ki of 300 µM (Urea transporter 1; urea transport inhibition; with: thiourea).
The Ki of `CN(C)c1ccc(C(=O)Nc2ccc3[nH]c(C(=O)NO)cc3c2)cc1` is reported as 1.09 µM (ELAVL1; Msi1 binding, inhibitor, fluorescence polarization).
With `O=c1n(CCCN2CCN(c3cccc(Cl)c3)CC2)nc2ccccn12` the Ki was greater than 10 µM (Melatonin receptor type 1A (MTNR1A, Homo sapiens, UniProt P48039)).
`CCOc1ccc(C(=O)CC(SCc2ccc(Cl)cc2)C(=O)O)cc1` (stereo not drawn) gave a Ki of 50.9 ± 3.9 µM (PLEKHA6 PH domain; PLEKHA6 PI(4,5)P2 binding, fluorescence polarization; with: BODIPY-PI(4,5)P2 tracer).
The Ki of `Nc1ncnc2c1ncn2[C@@H]1O[C@H](COP(=O)(O)OP(=O)(O)O)[C@@H](O)[C@H]1O` is reported as 271 ± 6 µM (klp-6 (Caenorhabditis elegans, UniProt G5EFQ4, I117M); microtubule gliding velocity, competitive inhibitor, single-molecule TIRF; pH 7.4, with: Mg-ATP varied, porcine microtubules).
`NS(=O)(=O)c1nnc(NC(=O)C(F)CC2CCCCC2)s1` (stereo not drawn) has a Ki of 0.2 µM (Enterococcus faecium γ-carbonic anhydrase; CO2 hydration, inhibitor, stopped-flow kinetics).
`CCOc1ccc(C(=O)CC(SCc2ccc(OC)cc2)C(=O)O)cc1` (stereo not drawn) has a Ki of 175 ± 26 µM (PLEKHA6 PH domain; PLEKHA6 PI(4,5)P2 binding, fluorescence polarization; with: BODIPY-PI(4,5)P2 tracer).
For `NS(=O)(=O)c1nnc(NC(=O)CCC2CCC(F)(F)CC2)s1`, the Ki was 0.255 µM (Enterococcus faecium γ-carbonic anhydrase; CO2 hydration, inhibitor, stopped-flow kinetics).
`CCOc1ccccc1C(=O)CC(SCc1ccc(Cl)cc1)C(=O)O` (stereo not drawn) gave a Ki of 83 ± 12 µM (PLEKHA6 PH domain; PLEKHA6 PI(4,5)P2 binding, fluorescence polarization; with: BODIPY-PI(4,5)P2 tracer).
For `C[C@H]1CCC[C@H](C(=O)Nc2nnc(S(N)(=O)=O)s2)C1` (racemic), the Ki was 0.12 µM (Enterococcus faecium γ-carbonic anhydrase; CO2 hydration, inhibitor, stopped-flow kinetics).
`NC(N)=S` has a Ki of 35000 µM (Urea transporter 1; urea transport; inhibitor inside only).
`Cc1ccc(C(=O)Nc2nnc(S(N)(=O)=O)s2)cc1` gave a Ki of 0.178 µM (Enterococcus faecium γ-carbonic anhydrase; CO2 hydration, inhibitor, stopped-flow kinetics).
`O=C(O)[C@@H]1CCCN1` gave a Ki of 145 ± 8 µM (Pyrroline-5-carboxylate reductase 2 (PYCR2, Homo sapiens, UniProt Q96C36); enzyme activity, competitive inhibitor, refers to: NADH oxidation; pH 7.5, 37 °C, competitive vs L-P5C, with: L-P5C).
`CC1CCC(CC(=O)Nc2nnc(S(N)(=O)=O)s2)CC1` (stereo not drawn) gave a Ki of 0.337 µM (Enterococcus faecium γ-carbonic anhydrase; CO2 hydration, inhibitor, stopped-flow kinetics).
The Ki of `CCOc1ccc(C(=O)CC(SCc2ccc(Cl)cc2)C(=O)OC)cc1` (stereo not drawn) is reported as greater than 1000 µM (PLEKHA6 PH domain; PLEKHA6 PI(4,5)P2 binding, fluorescence polarization; with: BODIPY-PI(4,5)P2 tracer).

Repeated from above:
`NC(=S)c1cccnc1` gave a Ki of 100 µM (Urea transporter 1; urea transport inhibition; with: thiourea).
`CCOc1ccc(C(=O)CC(SCc2ccc(Cl)cc2)C(=O)O)cc1` (stereo not drawn) gave a Ki of 50.9 ± 3.9 µM (PLEKHA6 PH domain; PLEKHA6 PI(4,5)P2 binding, fluorescence polarization; with: BODIPY-PI(4,5)P2 tracer).
`Cc1ccc(C(=O)Nc2nnc(S(N)(=O)=O)s2)cc1` gave a Ki of 0.178 µM (Enterococcus faecium γ-carbonic anhydrase; CO2 hydration, inhibitor, stopped-flow kinetics).
For `COc1ccc(-c2csc(NN=Cc3ccc(N4CC(C)CC(C)C4)cc3)n2)cc1` (stereo not drawn), the Ki was 10.6 ± 0.89 µM (alpha-glucosidase; enzyme activity, inhibitor, Lineweaver-Burk plot; with: p-nitrophenyl-alpha-D-glucopyranoside).
The Ki of `CN(C)c1ccc(C(=O)Nc2ccc3[nH]c(C(=O)NO)cc3c2)cc1` is reported as 1.09 µM (ELAVL1; Msi1 binding, inhibitor, fluorescence polarization).
